Assay results from different studies.
A part holds a random share of what one study measured.

Series 1
Target: Sal-like protein 4, full length isoform B (SALL4, Homo sapiens, UniProt Q9UJQ4-2, residues 1-616)
Technique: universal PBM
Molecule type: double-stranded DNA, one strand shown
Sample: in vitro
Concentration: not given
Notes: 8-mer, flanks averaged, mean of replicates
Reading: higher = stronger binding
Residues (chain): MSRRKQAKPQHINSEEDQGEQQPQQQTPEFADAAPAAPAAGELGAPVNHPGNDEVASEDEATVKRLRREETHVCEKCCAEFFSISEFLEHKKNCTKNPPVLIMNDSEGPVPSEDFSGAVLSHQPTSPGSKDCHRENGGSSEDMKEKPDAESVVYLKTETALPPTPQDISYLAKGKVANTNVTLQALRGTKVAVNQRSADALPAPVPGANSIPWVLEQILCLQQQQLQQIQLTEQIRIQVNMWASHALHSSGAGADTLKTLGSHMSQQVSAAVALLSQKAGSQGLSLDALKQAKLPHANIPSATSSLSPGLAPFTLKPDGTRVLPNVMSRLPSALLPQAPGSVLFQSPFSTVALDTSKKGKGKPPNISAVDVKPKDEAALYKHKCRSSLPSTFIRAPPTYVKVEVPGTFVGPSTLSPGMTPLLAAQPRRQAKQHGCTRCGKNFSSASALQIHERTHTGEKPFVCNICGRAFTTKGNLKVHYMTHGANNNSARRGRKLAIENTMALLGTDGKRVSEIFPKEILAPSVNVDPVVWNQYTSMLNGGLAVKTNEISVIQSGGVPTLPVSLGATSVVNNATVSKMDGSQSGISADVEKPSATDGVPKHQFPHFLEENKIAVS
| Strand | E-score |
| --- | --- |
| GTGACCCA | -0.226 |
| GTCTTGTA | 0.025 |
| TTGGCAAA | 0.184 |
| CATTCGTC | 0.0387 |
| CCACTTCG | -0.178 |

Series 2
Target: RNA binding protein fox-1 homolog 2, RRM domain, GST-SBP tag (RBFOX2, Homo sapiens, UniProt O43251-10, residues 100-194)
Technique: RNA Bind-n-Seq
Molecule type: RNA
Sample: in vitro
Concentration: 365 nM
Notes: natural RNA segment, single round, ends assumed
Relative to: no-protein control
Reading: higher = stronger binding
| Strand | RBNS enrichment (R) |
| --- | --- |
| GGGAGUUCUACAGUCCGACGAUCUUAUUCGUGUUAGCUGAAAUGCAUUCAGACUUUGUUCUGCGGUGCCCACAGGACUUACCCCUGUAUGUACAGGAUUUUUGUAUGAAAGUUUUGUUUGAUUCUGAGACUCUUGGAAUUCUCGGGUGCCAA | 0.376 |
| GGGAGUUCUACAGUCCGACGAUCGUAUAGCACUACAUUCUUUUUUAAGUGAUGUAAACUUUAGUUUCUUUAGCCCCUUCAUUUUGAAUAUGAUGCCACAUAUGAAUGUUGAAGCUGAUACAUUGCACAAUUCUUGGAAUUCUCGGGUGCCAA | 0.387 |
| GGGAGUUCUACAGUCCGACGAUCAUAGGUACCCAACUGGUUGAUUAUUAAUCAAGAAUACAGAACUUUAUUUAAUAAUUAGCACACCCUGAUCUGGCUUCUUUGCUUGCUUUUCUUUGGAUCCCUGUCCAAUAUGGAAUUCUCGGGUGCCAA | 0.901 |
| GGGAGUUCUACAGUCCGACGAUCAGGAACACUUGCUCUUUGAGCCCCGUGACCGACAGUGACCAGGGAUUGGCAUUCUUGGAUUGGCAUGCUUUCCAUUGUUACUUUGUCUAUUUUGGUAAGAAAAACAUCAAUGGAAUUCUCGGGUGCCAA | 1.47 |
| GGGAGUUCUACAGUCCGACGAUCCAGUUCAAACAUGUCUCCACUACCCUGUUAAGAGCAGCCUGGGAACGUACAGGCCAUCAAGACUAUUUAUUUAAAUACAAAAAAAGGGGAAAACACACACACGGAAAAAAUGGAAUUCUCGGGUGCCAA | 0.381 |

Series 3
Target: TATA-box-binding protein 1 (TBP1, Arabidopsis thaliana, UniProt P28147, residues 1-200, full length assumed)
Technique: protein-binding microarray
Molecule type: double-stranded DNA, one strand shown
Sample: in vitro
Concentration: not given
Notes: k-mer, scored over probes, only values ≥0.25
Reading: higher = stronger binding
Construct (chain): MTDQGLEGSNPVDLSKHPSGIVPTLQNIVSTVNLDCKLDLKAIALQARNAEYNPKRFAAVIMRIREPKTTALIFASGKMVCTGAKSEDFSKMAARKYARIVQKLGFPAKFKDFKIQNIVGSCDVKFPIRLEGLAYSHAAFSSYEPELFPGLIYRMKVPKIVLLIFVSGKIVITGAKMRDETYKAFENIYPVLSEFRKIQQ
| Strand | E-score |
| --- | --- |
| GATAAAA | 0.348 |
| TGTATAA | 0.363 |
| ATTATAG | 0.361 |
| AACTACA | 0.266 |
| CTTATAC | 0.33 |

Further values, each from its own experiment
| Substance | target | assay | test system | conditions | scale | endpoint | result |
| --- | --- | --- | --- | --- | --- | --- | --- |
| PhoQ, residues 284 288 289 292 302 303 ASTSDA | PhoP, residues 12 14 15 18 19 AWHSL (Escherichia coli, UniProt P23836) | Sort-seq, measured: YFP reporter | E. coli | PhoQ-PhoP variant library, with: 10 µM Mg2+ | relative to: high Mg2+ state, higher = stronger signaling | fold induction | 6.6 |

Excerpt of the above (series 3):
| Strand | E-score |
| --- | --- |
| TGTATAA | 0.363 |
